Results of several laboratories.
Numbered parts are unrelated; each lists some results of a single study.
Sequence of UniProt P42336 (whole entry, unmodified, looked up): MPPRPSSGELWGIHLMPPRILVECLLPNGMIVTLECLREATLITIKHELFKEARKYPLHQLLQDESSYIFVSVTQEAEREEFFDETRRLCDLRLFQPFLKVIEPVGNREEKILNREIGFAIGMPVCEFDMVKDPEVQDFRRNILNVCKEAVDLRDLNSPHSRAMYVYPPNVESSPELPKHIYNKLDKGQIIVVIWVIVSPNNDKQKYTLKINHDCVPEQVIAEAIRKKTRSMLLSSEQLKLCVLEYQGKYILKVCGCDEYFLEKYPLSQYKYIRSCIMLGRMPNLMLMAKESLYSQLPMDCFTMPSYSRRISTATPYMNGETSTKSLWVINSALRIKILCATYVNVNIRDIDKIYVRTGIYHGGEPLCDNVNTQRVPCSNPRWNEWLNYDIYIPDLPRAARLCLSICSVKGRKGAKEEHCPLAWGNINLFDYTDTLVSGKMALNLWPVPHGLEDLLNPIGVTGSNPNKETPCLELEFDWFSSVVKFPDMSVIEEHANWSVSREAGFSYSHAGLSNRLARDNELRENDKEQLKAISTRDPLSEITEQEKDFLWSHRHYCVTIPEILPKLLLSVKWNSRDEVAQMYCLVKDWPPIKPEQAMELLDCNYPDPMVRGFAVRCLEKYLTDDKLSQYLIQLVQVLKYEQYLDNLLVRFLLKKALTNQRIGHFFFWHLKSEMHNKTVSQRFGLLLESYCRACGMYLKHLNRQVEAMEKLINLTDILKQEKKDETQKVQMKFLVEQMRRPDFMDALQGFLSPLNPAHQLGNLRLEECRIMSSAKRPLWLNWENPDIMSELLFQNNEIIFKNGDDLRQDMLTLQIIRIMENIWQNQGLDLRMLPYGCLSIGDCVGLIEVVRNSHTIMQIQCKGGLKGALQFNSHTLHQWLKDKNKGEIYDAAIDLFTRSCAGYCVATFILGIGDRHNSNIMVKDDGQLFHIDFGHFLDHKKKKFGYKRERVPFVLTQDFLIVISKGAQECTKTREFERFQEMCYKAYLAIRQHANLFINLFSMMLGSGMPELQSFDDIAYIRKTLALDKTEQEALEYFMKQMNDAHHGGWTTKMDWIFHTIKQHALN
Sequence of UniProt P00519 (whole entry, unmodified, looked up): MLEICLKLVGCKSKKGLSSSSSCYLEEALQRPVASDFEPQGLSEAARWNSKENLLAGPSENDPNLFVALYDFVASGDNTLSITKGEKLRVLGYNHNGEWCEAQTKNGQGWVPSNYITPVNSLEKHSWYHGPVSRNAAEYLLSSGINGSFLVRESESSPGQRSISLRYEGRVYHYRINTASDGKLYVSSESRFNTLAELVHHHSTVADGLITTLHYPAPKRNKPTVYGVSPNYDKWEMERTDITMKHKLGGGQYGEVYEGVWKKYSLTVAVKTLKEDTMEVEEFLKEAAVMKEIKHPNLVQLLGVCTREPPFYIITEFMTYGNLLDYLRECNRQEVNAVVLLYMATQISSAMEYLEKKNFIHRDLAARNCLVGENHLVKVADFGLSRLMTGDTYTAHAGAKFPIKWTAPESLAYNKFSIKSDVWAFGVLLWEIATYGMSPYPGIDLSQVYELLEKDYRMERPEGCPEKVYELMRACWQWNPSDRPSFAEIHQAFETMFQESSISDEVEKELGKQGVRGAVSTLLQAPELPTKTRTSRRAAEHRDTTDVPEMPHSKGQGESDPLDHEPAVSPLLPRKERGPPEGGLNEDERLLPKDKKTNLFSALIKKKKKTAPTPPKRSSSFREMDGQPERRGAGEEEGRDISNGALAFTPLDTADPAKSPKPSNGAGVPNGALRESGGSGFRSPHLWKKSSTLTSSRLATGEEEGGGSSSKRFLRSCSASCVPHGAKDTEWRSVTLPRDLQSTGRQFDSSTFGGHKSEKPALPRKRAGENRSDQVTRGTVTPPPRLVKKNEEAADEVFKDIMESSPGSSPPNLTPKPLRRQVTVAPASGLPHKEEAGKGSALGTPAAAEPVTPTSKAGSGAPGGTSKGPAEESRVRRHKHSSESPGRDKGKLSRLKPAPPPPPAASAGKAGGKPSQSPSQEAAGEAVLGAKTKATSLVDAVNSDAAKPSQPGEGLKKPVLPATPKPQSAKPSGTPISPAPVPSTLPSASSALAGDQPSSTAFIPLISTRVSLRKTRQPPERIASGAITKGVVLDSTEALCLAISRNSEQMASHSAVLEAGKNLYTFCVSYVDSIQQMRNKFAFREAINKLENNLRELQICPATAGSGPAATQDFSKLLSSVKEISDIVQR
Sequence of UniProt P48736 (whole entry, looked up): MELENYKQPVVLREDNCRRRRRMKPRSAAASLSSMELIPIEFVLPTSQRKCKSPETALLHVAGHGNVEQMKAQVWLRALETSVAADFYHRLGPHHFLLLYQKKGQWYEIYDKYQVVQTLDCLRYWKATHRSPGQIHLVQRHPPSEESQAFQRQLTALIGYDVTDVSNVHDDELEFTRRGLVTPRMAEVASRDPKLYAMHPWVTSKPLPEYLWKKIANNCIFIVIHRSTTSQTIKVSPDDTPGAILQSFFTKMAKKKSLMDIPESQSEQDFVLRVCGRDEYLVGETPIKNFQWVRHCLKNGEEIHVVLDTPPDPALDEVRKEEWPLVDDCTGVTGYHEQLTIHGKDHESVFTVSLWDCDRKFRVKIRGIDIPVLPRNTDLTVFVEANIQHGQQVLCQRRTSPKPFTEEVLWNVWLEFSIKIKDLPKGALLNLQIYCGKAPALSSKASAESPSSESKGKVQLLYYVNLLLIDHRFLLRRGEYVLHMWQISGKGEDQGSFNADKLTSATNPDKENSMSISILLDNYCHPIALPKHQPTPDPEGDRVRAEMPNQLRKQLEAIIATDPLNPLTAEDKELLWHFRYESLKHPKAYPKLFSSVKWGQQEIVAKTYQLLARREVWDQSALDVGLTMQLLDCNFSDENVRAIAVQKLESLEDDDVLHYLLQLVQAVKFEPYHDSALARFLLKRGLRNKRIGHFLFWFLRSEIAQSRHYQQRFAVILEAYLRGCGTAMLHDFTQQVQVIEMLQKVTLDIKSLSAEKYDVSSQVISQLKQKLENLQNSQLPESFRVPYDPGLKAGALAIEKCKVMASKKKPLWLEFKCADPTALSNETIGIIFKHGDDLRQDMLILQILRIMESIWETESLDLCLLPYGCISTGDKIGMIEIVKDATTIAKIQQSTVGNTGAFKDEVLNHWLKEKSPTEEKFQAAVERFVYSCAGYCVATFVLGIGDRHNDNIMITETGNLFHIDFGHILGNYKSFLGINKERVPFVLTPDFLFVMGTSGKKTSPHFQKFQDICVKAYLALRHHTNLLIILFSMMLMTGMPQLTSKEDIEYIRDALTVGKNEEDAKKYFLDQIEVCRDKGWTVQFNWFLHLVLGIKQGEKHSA
Sequence of UniProt P37173 (whole entry, looked up): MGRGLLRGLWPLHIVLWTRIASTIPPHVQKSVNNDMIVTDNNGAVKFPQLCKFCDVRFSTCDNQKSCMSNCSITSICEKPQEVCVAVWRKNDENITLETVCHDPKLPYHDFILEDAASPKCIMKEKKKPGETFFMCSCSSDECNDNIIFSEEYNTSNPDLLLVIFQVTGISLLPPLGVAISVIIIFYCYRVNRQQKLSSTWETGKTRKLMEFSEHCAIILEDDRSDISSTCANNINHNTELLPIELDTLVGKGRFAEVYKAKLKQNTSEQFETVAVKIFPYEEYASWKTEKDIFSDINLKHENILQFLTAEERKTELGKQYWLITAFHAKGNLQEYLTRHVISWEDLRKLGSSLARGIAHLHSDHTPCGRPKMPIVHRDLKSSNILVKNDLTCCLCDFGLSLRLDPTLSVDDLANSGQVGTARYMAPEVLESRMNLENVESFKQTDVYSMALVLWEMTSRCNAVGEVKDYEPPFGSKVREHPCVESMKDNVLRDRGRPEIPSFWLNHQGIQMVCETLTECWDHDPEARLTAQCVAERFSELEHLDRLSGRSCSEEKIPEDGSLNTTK
Sequence of UniProt P23443 (whole entry, looked up): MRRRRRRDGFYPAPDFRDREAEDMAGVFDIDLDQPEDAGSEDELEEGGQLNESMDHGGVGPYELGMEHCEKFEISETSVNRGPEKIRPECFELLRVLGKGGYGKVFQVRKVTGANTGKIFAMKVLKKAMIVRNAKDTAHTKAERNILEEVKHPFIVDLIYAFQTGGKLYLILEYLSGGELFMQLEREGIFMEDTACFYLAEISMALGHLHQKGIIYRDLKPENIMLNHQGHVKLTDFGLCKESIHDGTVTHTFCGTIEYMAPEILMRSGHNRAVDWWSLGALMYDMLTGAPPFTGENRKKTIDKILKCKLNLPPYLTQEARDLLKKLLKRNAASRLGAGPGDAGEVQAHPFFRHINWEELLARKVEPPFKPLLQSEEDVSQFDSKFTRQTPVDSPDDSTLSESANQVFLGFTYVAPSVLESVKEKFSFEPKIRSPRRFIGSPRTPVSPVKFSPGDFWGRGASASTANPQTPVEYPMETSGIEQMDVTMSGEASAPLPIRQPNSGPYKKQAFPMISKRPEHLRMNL
Sequence of UniProt Q9NWZ3 (whole entry, looked up): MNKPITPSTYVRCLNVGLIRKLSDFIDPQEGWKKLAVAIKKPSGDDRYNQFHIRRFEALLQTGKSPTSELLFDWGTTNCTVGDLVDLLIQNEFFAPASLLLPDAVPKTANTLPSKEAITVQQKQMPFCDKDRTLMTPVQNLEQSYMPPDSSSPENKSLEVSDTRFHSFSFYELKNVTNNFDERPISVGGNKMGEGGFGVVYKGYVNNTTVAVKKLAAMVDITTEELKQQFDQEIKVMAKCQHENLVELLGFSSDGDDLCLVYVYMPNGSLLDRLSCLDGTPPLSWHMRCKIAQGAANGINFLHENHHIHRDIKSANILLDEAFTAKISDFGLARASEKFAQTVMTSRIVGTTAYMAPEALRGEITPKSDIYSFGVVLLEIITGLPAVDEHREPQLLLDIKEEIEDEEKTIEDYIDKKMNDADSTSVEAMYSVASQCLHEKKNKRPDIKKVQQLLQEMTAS

Study 1 — species: mouse; medium: microsomes or S9; tested at: 2 µM; time: 0.5 h; endpoint: remaining compound
CCN(CC)CCN(C)Cc1cccc2ccccc12: 0.0284%
CCOC(=O)N1CCC(NC(=O)COCC(=O)Nc2ccc(C#N)cc2)CC1: 67%
CC(C)n1ncc2c(=O)n(Cc3ncc(Cl)cc3Cl)cnc21: 2.54%
c1ccc(-c2ccc3c(C4CCCC4)cncc3c2)cc1: 0.593%

Study 2 — technique: PRP chromatography estimate; medium: 1,9-decadiene/PBS; pH: 7.4; endpoint: logD
CC(C)C[C@@H]1NC(=O)[C@H](C(C)C)NC(=O)[C@H](C)NC(=O)[C@@H](CC(C)C)NC(=O)[C@H](C(C)C)NC(=O)[C@H](CC(C)C)NC(=O)[C@@H](CC(C)C)NC1=O: 0.372
CC(C)C[C@@H]1NC(=O)[C@H](C)NC(=O)[C@H](CCC(=O)N2CCCC2)NC(=O)[C@H](C)NC(=O)[C@H](CC(C)C)NC(=O)[C@H](CC(C)C)NC(=O)[C@H](CC(C)C)NC1=O: -1.86
CC(C)C[C@@H]1NC(=O)[C@H](CC(C)C)NC(=O)[C@@H](CC(C)C)NC(=O)[C@H](C)NC(=O)[C@H](C(C)C)NC(=O)[C@H](C)NC(=O)[C@H](C)NC1=O: -2.32
CCC[C@@H]1NC(=O)CSC[C@@H](C(=O)OCC)N(C)C(=O)[C@H](CC(C)C)NC(=O)[C@@H](C)N(C)C(=O)[C@@H](CC(C)C)NC(=O)[C@H](C)N(C)C(=O)[C@@H]2CCCN2C(=O)[C@H](CC(C)C)NC(=O)CN(C)C1=O: -0.429

Study 3 — cell line: mouse MPNST tumor cells; technique: high-content immunofluorescence imaging; measured: nuclear SOX9; tested at: 10 µM; time: 12 h; setting: mean of 2 replicates; relative to: DMSO control; reading: higher = more nuclear SOX9; endpoint: nuclear SOX9 intensity
COc1cc(NC(C)CCCN)c2ncccc2c1 (stereo not drawn): 133 % of DMSO
O=C(Nc1cccnc1)N1CCC(Cc2cccc(Oc3ccc(C(F)(F)F)cn3)c2)CC1: 141 % of DMSO
Cc1ccc(S(=O)(=O)NC(=O)NN2CC3CCCC3C2)cc1 (stereo not drawn): 93.6 % of DMSO
CCCC[S+]([O-])c1sc2nc(-c3cccs3)cc(-c3ccccc3)c2c1N (stereo not drawn): 107 % of DMSO

Study 4 — effect on: cell-free assay; technique: competition with immobilised ligand; tested at: 1 µM; endpoint: remaining binding
Compound: CNC(=O)Nc1ccc2c(c1)[C@@]1(CC2)OC(=O)N(CC(=O)N(Cc2ccc(F)cc2)[C@@H](C)C(F)(F)F)C1=O
TLK1 (Homo sapiens, UniProt Q9UKI8): 100%
SIK3 (Homo sapiens, UniProt Q9Y2K2): 100%
PIK3CA (Homo sapiens, UniProt P42336, C420R): 80%
MAPK10 (Homo sapiens, UniProt P53779): 67%
Tyrosine-protein kinase ABL1, phosphorylated (ABL1, Homo sapiens, UniProt P00519, F317L): 78%
IRAK4 (Homo sapiens, UniProt Q9NWZ3): 94%
PIK3CA (Homo sapiens, UniProt P42336): 28%
TGFBR2 (Homo sapiens, UniProt P37173): 95%
PIM3 (Homo sapiens, UniProt Q86V86): 89%
RPS6KB1 (Homo sapiens, UniProt P23443): 100%
PIK3CG (Homo sapiens, UniProt P48736): 64%
EPHA3 (Homo sapiens, UniProt P29320): 100%
EPHB4 (Homo sapiens, UniProt P54760): 91%
TSSK1B (Homo sapiens, UniProt Q9BXA7): 100%
Ribosomal protein S6 kinase alpha-1, N-terminal kinase domain (RPS6KA1, Homo sapiens, UniProt Q15418): 96%

Study 5 — organism: Sarcocystis neurona; effect on: parasite growth; tested at: 10 µM; endpoint: inhibition
O=C(O)COCCN1CCN([C@H](c2ccccc2)c2ccc(Cl)cc2)CC1: -29.3%
CC(C)(C)NCC(O)c1ccc(O)c(CO)c1.CC(C)(C)NCC(O)c1ccc(O)c(CO)c1.O=S(=O)(O)O (stereo not drawn): -20.4%
CC(C)n1c(/C=C/C(O)CC(O)CC(=O)O)c(-c2ccc(F)cc2)c2ccccc21 (stereo not drawn): -21.6%

A few entries again (study 3):
COc1cc(NC(C)CCCN)c2ncccc2c1 (stereo not drawn): 133 % of DMSO
O=C(Nc1cccnc1)N1CCC(Cc2cccc(Oc3ccc(C(F)(F)F)cn3)c2)CC1: 141 % of DMSO
Cc1ccc(S(=O)(=O)NC(=O)NN2CC3CCCC3C2)cc1 (stereo not drawn): 93.6 % of DMSO
